Published values from different studies.
Each line is one published result; not all experiments were run side by side. Several values in a cell are separate wells, animals, samples, runs or records. ± gives the spread as reported.

Compound | cell line | test | setting | measurement | result
CCCCCCCCCC(=O)N[C@@H](Cc1c[nH]c2ccccc12)C(=O)N[C@H](CC(N)=O)C(=O)N[C@@H](CC(=O)O)C(=O)N[C@@H]1C(=O)NCC(=O)N[C@@H](CCCN)C(=O)N[C@@H](CC(=O)O)C(=O)N[C@H](C)C(=O)N[C@@H](CC(=O)O)C(=O)NCC(=O)N[C@H](CO)C(=O)N[C@@H]([C@H](C)CC(=O)O)C(=O)N[C@@H](CC(=O)c2ccccc2N)C(=O)O[C@@H]1C | human erythrocytes | haemolysis |  | LC50 | 103 µM
O=S(=O)(c1ccc(O)cc1)c1ccc(O)cc1 | HepG2 spheroids, dissociated | annexin V-FITC/PI flow cytometry | 0.1 µM, 24 h | viable cells | 75.6 ± 5.89%
O=S(=O)(O)C(F)(F)C(F)(F)C(F)(F)C(F)(F)F | hTERT-RPTEC parental |  | concentration not given, 96-well plate | LDH release | 25.7 mU/mL and 23.8 mU/mL and 19.4 mU/mL and 28.3 mU/mL
O=c1ccc2ccccc2o1 | HepG2 | cell count | concentration not given, 1 h, high-content imaging | response probability | 0.05%
N#C[C@@]1(n2ccc(N)nc2=O)O[C@H](CO)[C@@H](O)[C@H]1O | CHO |  | 500 µM, with S9 | micronucleated cells | 0.3%
Oc1ccc(C2(c3ccc(O)cc3)c3ccccc3-c3ccccc32)cc1 | HepG2 spheroids, dissociated | annexin V-FITC/PI flow cytometry | 0.01 µM, 96 h | viable cells | 39.5 ± 19%
Nc1nc(O)c2ncn(COC(CO)CO)c2n1 | HEL human embryonic lung fibroblasts | cell morphology alteration |  | minimum cytotoxic concentration | > 100 µM
CC(C)CC(=O)OC[C@H]1O[C@@](C#N)(c2ccc3c(N)ncnn23)[C@H](O)[C@@H]1O | dog hepatocytes |  | 5 µM, 15 min | remaining compound | 0.81 ± 0.251%
CN(C)c1ccc(C(Nc2nc3c(-c4ccc([N+](=O)[O-])cc4)nn(-c4ccccc4)c3s2)P(=O)(Oc2ccccc2)Oc2ccccc2)cc1 (stereo not drawn) | Vero cells | SRB | 100 µM, 10% fetal bovine serum | viability | 94.5%
N=C(N)NCCC[C@H](NC(=O)CN)C(=O)N[C@@H](Cc1c[nH]c2ccccc12)C(=O)N[C@@H](CCCNC(=N)N)C(=O)N[C@@H](Cc1c[nH]c2ccccc12)C(=O)N[C@@H](Cc1c[nH]c2ccccc12)C(=O)N[C@@H](Cc1c[nH]c2ccccc12)C(=O)N[C@@H](CCCNC(=N)N)C(=O)N[C@@H](Cc1c[nH]c2ccccc12)C(=O)N[C@@H](CCCNC(=N)N)C(=O)N[C@@H](Cc1ccccc1)C(N)=O | HD11 macrophages |  |  | LC50 | > 512 µM
CC(C)(c1ccc(O)cc1)c1ccc(O)cc1 | HepG2 spheroids | annexin V-FITC/PI flow cytometry | 1 µM, 96 h | necrotic cells | 43.3 ± 6.35%
Fc1ccc(Oc2ccnc3cc(Cl)cc(Cl)c23)cc1 | HEK293-H PPARγ-UAS-bla cells | cell viability, IncuCyte imaging | 24 h, freely dissolved concentration | IC10 | 0.177 µM
CC(C)=CCN1Cc2cc(Cl)cc3[nH]c(=S)n(c23)C[C@@H]1C | 293T-ACE2 |  | 40 (unit not given) | CC50 | 1 µM
COc1ccc2c(c1)c(CC(=O)O)c(C)n2C(=O)c1ccc(Cl)cc1 | HEK293-H PPARγ-UAS-bla cells | cell viability, IncuCyte imaging | 24 h, freely dissolved concentration | IC10 | 61.1 µM
C[C@H](NC(=O)[C@H](Cc1ccc(O)cc1)NC(=O)[C@H](CCCNC(=N)N)NC(=O)[C@H](CCCNC(=N)N)NC(=O)[C@H](CCCNC(=N)N)NC(=O)[C@@H](N)CCCNC(=N)N)C(=O)N[C@@H](CCCNC(=N)N)C(=O)N1CCC[C@H]1C(=O)N[C@@H](Cc1ccc(O)cc1)C(=O)N[C@@H](Cc1ccc(O)cc1)C(=O)N[C@@H](CCCNC(=N)N)C(=O)N[C@@H](CCCNC(=N)N)C(=O)N[C@@H](CCCNC(=N)N)C(=O)O | DF-1 | LDH release | 3 µM, 1 h | viability | 98.7 ± 1.22%

Excerpt of the above:
Compound | cell line | test | setting | measurement | result
CC(C)=CCN1Cc2cc(Cl)cc3[nH]c(=S)n(c23)C[C@@H]1C | 293T-ACE2 |  | 40 (unit not given) | CC50 | 1 µM
N=C(N)NCCC[C@H](NC(=O)CN)C(=O)N[C@@H](Cc1c[nH]c2ccccc12)C(=O)N[C@@H](CCCNC(=N)N)C(=O)N[C@@H](Cc1c[nH]c2ccccc12)C(=O)N[C@@H](Cc1c[nH]c2ccccc12)C(=O)N[C@@H](Cc1c[nH]c2ccccc12)C(=O)N[C@@H](CCCNC(=N)N)C(=O)N[C@@H](Cc1c[nH]c2ccccc12)C(=O)N[C@@H](CCCNC(=N)N)C(=O)N[C@@H](Cc1ccccc1)C(N)=O | HD11 macrophages |  |  | LC50 | > 512 µM
